# Assay results collected from several papers.
# Lines come from different studies, so protocols differ. ± marks the error that the study gave.
SMILES,test,system,setting,Cmax
CCOc1ccc(Cc2cc([C@]34OC[C@](CO)(O3)[C@@H](O)[C@H](O)[C@H]4O)ccc2Cl)cc1,,"healthy human, plasma","oral, 15 mg, 20% glucose solution, with: glimepiride 1 mg",147 ng/mL
O=C(CCCCCCC(=O)Nc1ccccc1)NO,,"human, serum","oral, 400 mg three times daily, 3 days, with: idarubicin",1660 nM
COc1ccc2nc([S@@+]([O-])Cc3ncc(C)c(OC)c3C)[nH]c2c1,,"human, CYP2C19 intermediate metabolizers, plasma","oral, 40 mg/day, day 1",4030 ± 2410 ng/mL
CCc1cc2c(cc1N1CCC(N3CCOCC3)CC1)C(C)(C)c1[nH]c3cc(C#N)ccc3c1C2=O,"LC-MS, noncompartmental","human patients under sample A years, plasma","oral, 300 mg/day, cycle 1 day 21, geometric mean",480 ng/mL
CCCCCCCCCCCCCCC[C@H](O)[C@@H](N)CO,,"human, phase I, plasma","intravenous, 750 mg/m^2, day 1, monotherapy",26800 nM
C=C(C)[C@@H]1CC[C@]2(NCCN3CCS(=O)(=O)CC3)CC[C@]3(C)[C@H](CC[C@@H]4[C@@]5(C)CC=C(C6=CC[C@@](CF)(C(=O)O)CC6)C(C)(C)[C@@H]5CC[C@]43C)[C@@H]12,,"healthy human volunteers, plasma","oral, 200 mg, tablet, fasted state, geometric mean",354 ng/mL
Cc1nc2c(F)cc(-c3nc(Nc4ccc(CN5CCNCC5)cn4)ncc3F)cc2n1C(C)C,,"human patients, plasma","oral, 150 mg, single dose, geometric mean",26.8 ng/mL
Cc1nc(-c2ccc(OCC(C)C)c(C#N)c2)sc1C(=O)O,,"human male, plasma","oral, 80 mg once daily, day 7 or 21, geometric mean",1660 ng/mL
CC#CC(=O)N1CC[C@@H](n2c(=O)n(-c3ccc(Oc4ccccc4)cc3)c3c(N)ncnc32)C1,,"human, plasma","oral, 300 mg twice daily, cycle 1 day 1, fasting",886 ng/mL
Nc1ccc(-c2nc([C@H]3CCc4cc(-c5cc(Cl)ccc5-n5cnnn5)cc(=O)n43)c(F)[nH]2)c(F)n1,,"human, plasma","oral, 150 mg once daily, fed, day 14",2000 ng/mL
CCCC[C@H](NC(C)=O)C(=O)N[C@H]1CCC(=O)NC[C@@H](C(=O)N[C@@H](Cc2c[nH]c3ccccc23)C(N)=O)NC(=O)[C@H](CCCNC(=N)N)NC(=O)[C@@H](Cc2ccccc2)NC(=O)[C@H](Cc2c[nH]cn2)NC1=O,,"healthy human, both sexes, plasma","subcutaneous, 3.0 mg once daily, day 1, arithmetic mean",54.4 ng/mL
COCCCCn1c(C(=O)N(CC(C)C)[C@@H]2CNC[C@H](C(=O)N3CCOCC3)C2)nc2ccccc21,,"human, elderly, plasma","oral, 80 mg once daily, day 7, mean",1070 ng/mL
O=C(Nc1c(Cl)cncc1Cl)c1ccc(OC(F)F)c(OCC2CC2)c1,,"human adolescents, 12-17 years, plasma","topical, 0.3% cream once daily, day 15",1.27 ng/mL
O=C(/C=C/c1cccc(S(=O)(=O)Nc2ccccc2)c1)NO,,"human mild liver dysfunction, plasma","intravenous, 400 mg/m^2, 30 min infusion, cycle 1 day -7",26600 ng/mL
O=C1Nc2cc3[nH]nc(-c4ccncc4)c3cc2CN1Cc1ccccc1,,"human, plasma","intravenous infusion, 3.6 mg/kg, infusion 1 h",1410 to 3630 ng/mL
O=C(O)CCCCCCCNC(=O)c1ccccc1O,,"human, normal renal function, plasma","concentration not given, day 10, geometric mean, with: oral semaglutide once daily",971 nM
Cc1[nH]c2ccccc2c1CCNCc1ccc(/C=C/C(=O)NO)cc1,,human,"20 mg, day 1, with: IM 400 mg",12.6 ng/mL
Cc1ccc(NC(=O)c2ccc(CN3CCN(C)CC3)cc2)cc1Nc1nccc(-c2cncc(-c3oncc3C)c2)n1,,"older healthy human adults, plasma","oral, 175 mg single dose, fed, mean",6130 ng/mL
CC(C)(C)OC[C@@H]1C(=O)NCCN1C(=O)C[C@H](N)Cc1cc(F)c(F)cc1F,,human,"20 mg once daily, steady state, day 10",31 ± 6.1 ng/mL

# A few entries again:
SMILES,test,system,setting,Cmax
O=C(Nc1c(Cl)cncc1Cl)c1ccc(OC(F)F)c(OCC2CC2)c1,,"human adolescents, 12-17 years, plasma","topical, 0.3% cream once daily, day 15",1.27 ng/mL
